Experimental data gathered from unrelated publications.
Lines come from different studies, so protocols differ. “And” joins repeats or separate records; there may be more than shown. ± marks the error that the study gave.
RPA1 N-terminal domain: Replication protein A 70 kDa DNA-binding subunit, N-terminal domain (RPA1, Homo sapiens, UniProt P27694)
WEE1/CRBN: WEE1/CRBN (Homo sapiens, UniProt P30291+Q96SW2)

Protein sequences, listed by entry. Tags and fused reporters are not part of them. Residues count along the entry.
UniProt P30291, whole entry: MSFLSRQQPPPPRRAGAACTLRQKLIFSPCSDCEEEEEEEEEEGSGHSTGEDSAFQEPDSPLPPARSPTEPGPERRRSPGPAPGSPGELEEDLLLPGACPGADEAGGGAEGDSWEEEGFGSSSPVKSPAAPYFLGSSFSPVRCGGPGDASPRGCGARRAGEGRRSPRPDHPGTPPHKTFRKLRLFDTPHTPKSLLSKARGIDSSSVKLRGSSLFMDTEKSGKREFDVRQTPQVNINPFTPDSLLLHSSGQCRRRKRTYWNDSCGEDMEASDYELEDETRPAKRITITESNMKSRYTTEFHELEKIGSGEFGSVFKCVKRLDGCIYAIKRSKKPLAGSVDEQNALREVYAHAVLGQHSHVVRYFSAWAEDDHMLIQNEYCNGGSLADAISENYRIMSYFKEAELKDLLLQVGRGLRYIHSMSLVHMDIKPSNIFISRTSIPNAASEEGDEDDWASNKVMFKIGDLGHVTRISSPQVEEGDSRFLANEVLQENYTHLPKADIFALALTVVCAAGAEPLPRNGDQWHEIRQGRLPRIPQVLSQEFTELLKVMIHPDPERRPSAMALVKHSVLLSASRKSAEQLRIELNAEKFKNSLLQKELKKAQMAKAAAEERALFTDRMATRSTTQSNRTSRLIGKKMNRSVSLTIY
UniProt Q96SW2, whole entry: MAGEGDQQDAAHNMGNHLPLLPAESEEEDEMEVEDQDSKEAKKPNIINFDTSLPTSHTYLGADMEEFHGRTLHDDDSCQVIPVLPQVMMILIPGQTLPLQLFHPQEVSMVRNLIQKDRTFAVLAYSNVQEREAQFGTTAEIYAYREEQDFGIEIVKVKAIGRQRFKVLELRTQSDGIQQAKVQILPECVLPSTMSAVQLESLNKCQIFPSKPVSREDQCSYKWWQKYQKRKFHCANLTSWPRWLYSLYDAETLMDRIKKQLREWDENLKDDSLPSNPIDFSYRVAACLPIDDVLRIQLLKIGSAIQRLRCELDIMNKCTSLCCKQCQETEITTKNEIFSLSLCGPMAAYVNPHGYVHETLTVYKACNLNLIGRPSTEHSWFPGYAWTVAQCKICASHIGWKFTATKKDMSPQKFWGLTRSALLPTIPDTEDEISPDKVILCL
UniProt Q02750, whole entry: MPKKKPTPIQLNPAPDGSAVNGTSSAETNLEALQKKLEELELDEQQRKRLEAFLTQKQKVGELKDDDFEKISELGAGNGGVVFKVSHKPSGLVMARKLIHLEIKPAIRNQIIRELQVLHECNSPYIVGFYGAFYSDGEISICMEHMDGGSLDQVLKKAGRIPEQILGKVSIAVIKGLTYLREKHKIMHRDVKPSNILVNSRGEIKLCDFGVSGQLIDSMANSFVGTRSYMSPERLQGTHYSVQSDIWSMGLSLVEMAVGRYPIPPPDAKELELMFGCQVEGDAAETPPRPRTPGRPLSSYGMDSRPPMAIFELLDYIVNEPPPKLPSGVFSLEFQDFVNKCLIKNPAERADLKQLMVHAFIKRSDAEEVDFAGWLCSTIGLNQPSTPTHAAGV
UniProt Q8TDQ0, whole entry, looked up: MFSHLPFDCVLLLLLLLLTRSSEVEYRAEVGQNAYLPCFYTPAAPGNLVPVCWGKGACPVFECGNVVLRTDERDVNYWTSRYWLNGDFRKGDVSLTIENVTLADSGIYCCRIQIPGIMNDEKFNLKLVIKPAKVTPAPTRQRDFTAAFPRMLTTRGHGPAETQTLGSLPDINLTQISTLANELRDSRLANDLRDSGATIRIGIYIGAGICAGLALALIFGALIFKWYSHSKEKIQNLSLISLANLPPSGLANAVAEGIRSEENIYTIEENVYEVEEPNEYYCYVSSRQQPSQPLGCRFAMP
UniProt P51531, whole entry, looked up: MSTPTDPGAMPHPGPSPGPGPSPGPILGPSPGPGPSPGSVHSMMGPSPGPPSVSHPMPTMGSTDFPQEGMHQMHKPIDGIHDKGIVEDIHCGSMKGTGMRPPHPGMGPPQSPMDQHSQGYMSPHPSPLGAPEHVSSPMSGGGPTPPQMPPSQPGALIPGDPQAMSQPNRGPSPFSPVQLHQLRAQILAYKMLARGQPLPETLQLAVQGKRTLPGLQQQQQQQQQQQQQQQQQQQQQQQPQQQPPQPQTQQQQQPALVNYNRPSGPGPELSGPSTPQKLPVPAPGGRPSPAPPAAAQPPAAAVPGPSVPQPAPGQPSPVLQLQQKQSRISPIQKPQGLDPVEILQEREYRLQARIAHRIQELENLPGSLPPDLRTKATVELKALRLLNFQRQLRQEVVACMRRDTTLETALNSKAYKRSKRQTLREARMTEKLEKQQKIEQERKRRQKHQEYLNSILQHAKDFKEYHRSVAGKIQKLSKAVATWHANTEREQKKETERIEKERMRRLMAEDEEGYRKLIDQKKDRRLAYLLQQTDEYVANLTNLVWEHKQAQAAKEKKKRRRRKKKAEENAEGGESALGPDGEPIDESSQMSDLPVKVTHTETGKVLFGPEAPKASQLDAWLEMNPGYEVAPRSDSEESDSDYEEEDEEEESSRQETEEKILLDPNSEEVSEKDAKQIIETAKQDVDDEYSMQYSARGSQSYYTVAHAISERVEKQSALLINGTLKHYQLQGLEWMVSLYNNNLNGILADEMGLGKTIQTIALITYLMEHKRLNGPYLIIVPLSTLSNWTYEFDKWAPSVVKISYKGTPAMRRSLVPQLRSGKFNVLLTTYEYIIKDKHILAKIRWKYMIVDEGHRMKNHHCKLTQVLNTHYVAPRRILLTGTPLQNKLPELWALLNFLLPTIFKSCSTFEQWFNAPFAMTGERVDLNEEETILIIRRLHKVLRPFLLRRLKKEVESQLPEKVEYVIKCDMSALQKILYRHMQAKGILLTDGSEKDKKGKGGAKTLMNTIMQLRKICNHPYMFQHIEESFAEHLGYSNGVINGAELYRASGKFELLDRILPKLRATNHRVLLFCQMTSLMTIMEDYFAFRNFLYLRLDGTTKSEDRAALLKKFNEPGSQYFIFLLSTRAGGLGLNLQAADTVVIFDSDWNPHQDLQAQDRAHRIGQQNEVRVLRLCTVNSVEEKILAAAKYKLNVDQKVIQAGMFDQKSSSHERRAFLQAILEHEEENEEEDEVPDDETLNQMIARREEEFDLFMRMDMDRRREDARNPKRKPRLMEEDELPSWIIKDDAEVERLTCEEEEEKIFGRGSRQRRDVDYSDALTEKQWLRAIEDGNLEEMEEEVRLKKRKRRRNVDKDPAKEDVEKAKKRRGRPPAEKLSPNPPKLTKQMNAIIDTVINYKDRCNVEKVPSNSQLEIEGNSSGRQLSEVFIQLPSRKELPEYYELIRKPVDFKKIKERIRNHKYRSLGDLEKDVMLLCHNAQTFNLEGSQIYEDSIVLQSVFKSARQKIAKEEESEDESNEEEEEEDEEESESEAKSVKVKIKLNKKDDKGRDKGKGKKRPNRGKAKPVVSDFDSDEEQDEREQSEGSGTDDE
UniProt Q923Y8, whole entry T268M: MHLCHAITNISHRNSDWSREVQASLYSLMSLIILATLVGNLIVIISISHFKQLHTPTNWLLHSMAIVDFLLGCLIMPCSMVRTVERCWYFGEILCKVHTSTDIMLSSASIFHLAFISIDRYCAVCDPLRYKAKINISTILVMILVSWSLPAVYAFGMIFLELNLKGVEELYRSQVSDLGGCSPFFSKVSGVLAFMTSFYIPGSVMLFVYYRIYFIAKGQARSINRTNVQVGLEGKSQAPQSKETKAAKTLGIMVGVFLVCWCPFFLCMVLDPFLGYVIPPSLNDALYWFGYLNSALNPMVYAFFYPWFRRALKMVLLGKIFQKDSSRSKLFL
UniProt P22756, 31-920 isoform 4 limits assumed: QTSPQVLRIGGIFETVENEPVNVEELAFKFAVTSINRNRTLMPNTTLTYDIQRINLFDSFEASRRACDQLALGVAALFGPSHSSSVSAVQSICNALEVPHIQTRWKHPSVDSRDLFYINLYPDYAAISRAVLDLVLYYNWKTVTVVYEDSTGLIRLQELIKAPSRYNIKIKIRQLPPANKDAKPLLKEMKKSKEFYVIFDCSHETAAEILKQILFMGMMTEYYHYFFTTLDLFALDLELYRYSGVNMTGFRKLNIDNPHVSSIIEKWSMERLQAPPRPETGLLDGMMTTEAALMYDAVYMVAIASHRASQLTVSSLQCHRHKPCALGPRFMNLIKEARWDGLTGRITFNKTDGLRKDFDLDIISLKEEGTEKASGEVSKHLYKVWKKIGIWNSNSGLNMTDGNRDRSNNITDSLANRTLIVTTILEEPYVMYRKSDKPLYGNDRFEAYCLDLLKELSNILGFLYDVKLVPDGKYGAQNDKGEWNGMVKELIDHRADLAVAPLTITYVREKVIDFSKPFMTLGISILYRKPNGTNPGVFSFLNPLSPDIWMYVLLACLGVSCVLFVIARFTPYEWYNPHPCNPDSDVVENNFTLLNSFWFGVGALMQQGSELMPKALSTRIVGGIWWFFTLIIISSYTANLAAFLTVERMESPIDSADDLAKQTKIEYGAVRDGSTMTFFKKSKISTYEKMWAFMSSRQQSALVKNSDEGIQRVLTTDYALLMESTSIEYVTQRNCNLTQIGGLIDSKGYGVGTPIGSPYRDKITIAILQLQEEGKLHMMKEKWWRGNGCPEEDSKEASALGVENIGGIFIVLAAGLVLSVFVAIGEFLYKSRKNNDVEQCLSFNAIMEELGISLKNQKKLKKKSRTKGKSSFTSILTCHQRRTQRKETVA
UniProt Q16531, whole entry partner: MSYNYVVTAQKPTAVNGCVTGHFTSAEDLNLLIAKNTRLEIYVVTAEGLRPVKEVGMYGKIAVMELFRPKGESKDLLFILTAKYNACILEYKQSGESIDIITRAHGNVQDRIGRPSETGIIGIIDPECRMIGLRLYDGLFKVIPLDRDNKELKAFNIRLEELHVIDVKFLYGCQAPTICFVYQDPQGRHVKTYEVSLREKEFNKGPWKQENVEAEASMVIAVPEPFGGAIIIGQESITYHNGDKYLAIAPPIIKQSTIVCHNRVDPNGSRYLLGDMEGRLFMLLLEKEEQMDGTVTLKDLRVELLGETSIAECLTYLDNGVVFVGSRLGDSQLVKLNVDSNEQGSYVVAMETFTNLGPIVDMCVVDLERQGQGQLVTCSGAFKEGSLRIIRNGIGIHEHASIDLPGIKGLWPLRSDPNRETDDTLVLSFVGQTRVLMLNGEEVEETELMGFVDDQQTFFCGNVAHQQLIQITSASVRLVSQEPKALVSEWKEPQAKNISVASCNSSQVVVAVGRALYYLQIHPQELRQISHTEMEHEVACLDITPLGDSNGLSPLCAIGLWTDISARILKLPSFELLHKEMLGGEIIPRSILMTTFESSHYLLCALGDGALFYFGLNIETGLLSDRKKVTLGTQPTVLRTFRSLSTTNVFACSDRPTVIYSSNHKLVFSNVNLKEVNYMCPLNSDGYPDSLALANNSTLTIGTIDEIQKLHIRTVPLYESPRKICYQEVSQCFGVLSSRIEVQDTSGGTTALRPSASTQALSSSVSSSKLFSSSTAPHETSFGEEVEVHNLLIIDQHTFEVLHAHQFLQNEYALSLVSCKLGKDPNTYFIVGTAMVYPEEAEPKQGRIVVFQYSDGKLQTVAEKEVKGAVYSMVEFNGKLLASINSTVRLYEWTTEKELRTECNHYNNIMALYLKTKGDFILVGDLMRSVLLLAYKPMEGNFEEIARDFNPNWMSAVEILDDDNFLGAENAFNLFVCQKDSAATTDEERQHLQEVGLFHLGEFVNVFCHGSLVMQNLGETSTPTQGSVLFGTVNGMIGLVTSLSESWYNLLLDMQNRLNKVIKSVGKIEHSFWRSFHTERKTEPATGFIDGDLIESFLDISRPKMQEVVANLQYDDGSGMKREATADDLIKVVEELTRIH

Cc1c(=O)n(C)c(Nc2ccc(I)cc2F)c2c(=O)n(C3CC3)c(=O)n(-c3cccc(NC(=O)CCOCCOCCNC(=O)CCC4=[N+]5C(=Cc6ccc(-c7ccc[nH]7)n6[B-]5(F)F)C=C4)c3)c12  EC50 (MAP2K1 (Homo sapiens, UniProt Q02750); binding, NanoBRET; HEK-293T; MEK1-NanoLuc alone): 0.0056 ± 0.0006 µM
Cc1ccc(NC(=O)NC(=O)COC(=O)c2ccc(O)cc2O)c(C)c1  Kd (Hepatitis A virus cellular receptor 2 (Homo sapiens, UniProt Q8TDQ0); microscale thermophoresis): 0.43 µM
Cc1cccc(C2NC(=O)c3c(Cl)cccc3N2)c1 (racemic)  Kd (SMARCA2 (Homo sapiens, UniProt P51531); ITC; bromodomain, wild type): > 70 µM
Cc1ccc(C(=O)Nc2ccc(C(C)C)cc2C(=O)O)cc1S(=O)(=O)Nc1ccc(Br)cc1  Kd (RPA1 N-terminal domain; binding, fluorescence polarisation competition; with: FITC-ATRIP probe): 9 ± 0.54 µM
NCC(c1ccccc1)c1cccc(Oc2ccccc2)c1 (stereo not drawn)  EC50 (Taar1 (Mus musculus, UniProt Q923Y8, T268M); cAMP, agonist; mouse receptor mutant): > 10 µM
Cc1ccc(C(=O)Nc2cc(Br)ccc2C(=O)O)cc1S(=O)(=O)Nc1ccc(Br)cc1  Kd (RPA1 N-terminal domain; binding, fluorescence polarisation competition; with: FITC-ATRIP probe): 18 ± 1.5 µM
CC(C)(C)Nc1c(-c2ccc3c(c2)C(=O)N(C2CCC(=O)NC2=O)C3)nc2ccccn12 (stereo not drawn)  DC50 (WEE1/CRBN; degrader, HiBiT luciferase; Jurkat (HiBiT-tagged); 5 h): > 10 µM
Cc1ccc(NS(=O)(=O)c2cc(C(=O)Nc3ccccc3C(=O)O)ccc2C)cc1Cl  Kd (RPA1 N-terminal domain; binding, fluorescence polarisation competition; with: FITC-ATRIP probe): 43 ± 3.5 µM
O=C1CCC(N2Cc3cc(-c4nc5ccccn5c4NC45CC6CC(CC(C6)C4)C5)ccc3C2=O)C(=O)N1 (stereo not drawn)  DC50 (WEE1/CRBN; degrader, HiBiT luciferase; Jurkat (HiBiT-tagged); 5 h): < 0.002 µM and 0.0015 µM
CC(C)c1ccc(C(=O)Nc2ccccc2C(=O)O)cc1S(=O)(=O)Nc1ccc(Cl)c(Cl)c1  Kd (RPA1 N-terminal domain; binding, fluorescence polarisation competition; with: FITC-ATRIP probe): 5 µM
O=C(O)CNC(=O)c1cc(C(=O)O)cc([C@H]2CCN[C@@H]2C(=O)O)c1  Ki (Glutamate receptor ionotropic, kainate 1 (Rattus norvegicus, UniProt P22756); binding, radioligand binding; Sf9 membranes; homomeric receptor, with: [3H]SYM2081): 25.2 ± 1.8 µM
O=C1CCC(N2Cc3cc(-c4nc5ccccn5c4Nc4ccc5c(c4)OCCO5)ccc3C2=O)C(=O)N1 (stereo not drawn)  DC50 (WEE1/CRBN; degrader, HiBiT luciferase; Jurkat (HiBiT-tagged); 5 h): 0.028 ± 0.014 µM
